Results collected from several papers.
Compare with care: the assays were run in different laboratories. “And” joins repeats or separate records; there may be more than shown. ± marks the error that the study gave. Bridges are numbered along the chain shown (N, C = ends). Where no end group is shown, it is not given here.

The tissue uptake of CC(C)C[C@H](NC(=O)[C@H](CC(=O)O)NC(=O)CNC(=O)[C@H](CCCNC(=N)N)NC(=O)[C@H](CC(C)C)NC(=O)[C@H](CC(N)=O)NC(=O)[C@@H]1CCCN1C(=O)[C@@H](NC(=O)[C@H](C)NC(=O)[C@H](CC(N)=O)NC(=O)CCOCCOCCOCCOCCOCCOCCOCCOCCOCCOCCOCCOCCOCCOCCOCCOCCOCCOCCOCCOCCOCCOCCOCCOCCOCCOCCOCCOCCNC(=O)CN1CCN(CC(=O)O)CCN(CC(=O)O)CC1)C(C)C)C(=O)N[C@@H](CCC(N)=O)C(=O)N[C@H](C(=O)N[C@@H](CC(C)C)C(=O)N[C@@H](C)C(=O)N[C@@H](CCC(N)=O)C(=O)N[C@@H](CCCNC(=N)N)C(=O)N[C@H](C(=O)N[C@@H](C)C(=O)N[C@@H](CCCNC(=N)N)C(=O)N[C@H](C(=O)NCCOCCOCCOCCOCCOCCOCCOCCOCCOCCOCCOCCOCCOCCOCCOCCOCCOCCOCCOCCOCCOCCOCCOCCOCCOCCOCCOCCOCCC(N)=O)[C@@H](C)O)C(C)C)C(C)C [fluorine-18 labelled] is reported as no more than 0.9 %ID/g (female athymic nude mice, DX3puroβ6/DX3puro xenografts, liver; intravenous, 0.175 nmol).
With C#Cc1cccc2c1[nH]c1cnc(C(=O)OC(C)(C)C)cc12 the brain concentration was 89.9 ± 24.6 nM (Wistar rat, brain; intraperitoneal, 10 mg/kg daily for 4 days, 20 min after last dose).
With O=c1[nH]c(Cc2ccccn2)nc2c1cnn2C1CCOCC1 the half-life was 1.18 h (male human, plasma; oral, 5 mg, single dose).
CN[C@@](C)(C[18F])C(=O)O has a tissue uptake of 0.7 ± 0.1 %ID/g (SCID mouse SK-OV-3 xenograft, blood; 60 min, post injection).
Clc1ccc(-c2c(Cl)ccc(Cl)c2Cl)c(Cl)c1 has an enantiomeric fraction of 0.43 (rat liver microsomes; 50 µM, 30 min, remaining parent PCB).
With `GKWHCTTKFPHHYCLYG (disulfide 5-14 (inferred)) (cyclic, disulfide)` the blood half-life was ~0.167 h and 0.169 h (male nontransgenic mice, blood; intravenous, 0.5 mg/kg, sulfo-Cy5.5 labelled).
c1cc([C@H]2CC[C@]3(CC2)OO[C@]2(O3)C3CC4CC(C3)CC2C4)ccc1OCCN1CCOCC1 has a plasma concentration of greater than 20 ng/mL (human, plasma; oral, 200 to 800 mg once daily, 24 h post-dose on day 3 of 3 days, multiple rising dose).
CC(=O)N[C@H](CCCCNC(=O)C(C)F)C(=O)N[C@@H](CS)C(=O)N[C@@H](CS)C(=O)N[C@@H](CCC(=O)O)C(=O)N[C@@H](Cc1c[nH]cn1)C(=O)N[C@H](Cc1ccccc1)C(=O)N[C@@H](CCCNC(=N)N)C(=O)N[C@@H](Cc1c[nH]c2ccccc12)C(=O)N[C@@H](CS)C(=O)N[C@@H](CCCNC(=N)N)C(=O)N1CCC[C@H]1C(=O)N[C@H](C(N)=O)C(C)C (stereo partly drawn) [fluorine-18 labelled] gave a tissue uptake of 1.72 ± 0.16 %ID/g (C57BL/6 mice, male, B16-F10 tumour, lung; intravenous, 1 h).
With CC[C@H](C)[C@H](NC(=O)[C@H](CC(C)C)NC(=O)[C@H](Cc1c[nH]c2ccccc12)NC(=O)[C@H](CCC(N)=O)NC(=O)[C@@H](NC(=O)[C@H](Cc1ccccc1)NC(=O)[C@H](C)NC(=O)[C@H](CCCCNC(=O)COCCOCCNC(=O)COCCOCCNC(=O)CC[C@H](NC(=O)CCCCCCCCCCCCCCCCCCC(=O)O)C(=O)O)NC(=O)[C@H](CCC(N)=O)NC(=O)[C@H](C)NC(=O)[C@@H](NC(=O)[C@H](CCCCN)NC(=O)[C@H](CC(=O)O)NC(=O)[C@H](CC(C)C)NC(=O)C(C)(C)NC(=O)[C@@H](NC(=O)[C@H](CO)NC(=O)[C@H](Cc1ccc(O)cc1)NC(=O)[C@H](CC(=O)O)NC(=O)[C@H](CO)NC(=O)[C@@H](NC(=O)[C@H](Cc1ccccc1)NC(=O)[C@@H](NC(=O)CNC(=O)[C@H](CCC(=O)O)NC(=O)C(C)(C)NC(=O)[C@@H](N)Cc1ccc(O)cc1)[C@@H](C)O)[C@@H](C)O)[C@@H](C)CC)[C@@H](C)CC)C(C)C)C(=O)N[C@@H](C)C(=O)NCC(=O)NCC(=O)N1CCC[C@H]1C(=O)N[C@@H](CO)C(=O)N[C@@H](CO)C(=O)NCC(=O)N[C@@H](C)C(=O)N1CCC[C@H]1C(=O)N1CCC[C@H]1C(=O)N1CCC[C@H]1C(=O)N[C@@H](CO)C(N)=O the tmax was 24 h (human, mild hepatic impairment; subcutaneous, 5 mg).
The tissue uptake of CSCC[C@@H]1NC(=O)[C@H](CC(=O)O)NC(=O)CNC(=O)[C@H](CCCNC(=N)N)NC(=O)[C@H](C)NC(=O)[C@H](CCC(=O)O)NC(=O)[C@H](CCCNC(=N)N)NC(=O)[C@@H]2CSSC[C@@H]3NC(=O)[C@H](CO)NC(=O)[C@H]([C@@H](C)O)NC(=O)[C@@H]4CCCN4C(=O)[C@H](C)NC(=O)[C@H](Cc4c[nH]c5ccccc45)NC(=O)[C@H](CC(=O)O)NC(=O)CNC(=O)[C@H](CCCNC(=N)N)NC(=O)CNC(=O)[C@H](CCC(N)=O)NC(=O)[C@@H]4CCCN4C(=O)[C@@H](NC(=O)CNC(=O)C(C)F)CSSC[C@H](NC(=O)CNC(=O)[C@H](C)NC(=O)[C@H](CC(C)C)NC(=O)[C@H](CSSC[C@@H](C(=O)NCC(N)=O)NC(=O)[C@H]([C@@H](C)O)NC(=O)[C@H](CCCNC(=N)N)NC(=O)[C@@H]4CCCN4C1=O)NC(=O)[C@H](CC(=O)O)NC(=O)[C@H](CO)NC(=O)[C@H](CC(=O)O)NC(=O)[C@H](CCC(N)=O)NC(=O)[C@H](CO)NC3=O)C(=O)N[C@@H](C(C)C)C(=O)N2 (stereo partly drawn) [fluorine-18 labelled] is reported as 1.3 ± 0.08 %ID/g (nude mice U-87 MG xenograft, skin; intravenous, 0.5 h).
The remaining amount of CC(C)Nc1nc(Cl)nc(NC(C)C)n1 is reported as 5.93 ± 3.07% (LC-MS/MS; herbicide solution; 2 h, 4 °C, added: 365 nm UV exposure).
For Nc1cc(C(F)(F)F)c(-c2cc(N3CCOCC3)nc(N3CCOCC3)n2)cn1, “unbound Cmax increase” read 83% (severe hepatic impairment, plasma; oral, 30 mg; baseline: normal hepatic function).
For Oc1ccc2ccc3cccc4ccc1c2c34, the tissue concentration was 13100 ± 796 ng/g (HPLC-fluorescence; Wistar rat, male, colon; oral, 4 mg/kg PY, 24 h).
CCC(C)n1ncn(-c2ccc(N3CCN(c4ccc(OCC5COC(Cn6cncn6)(c6ccc(Cl)cc6Cl)O5)cc4)CC3)cc2)c1=O (stereo not drawn) — result for body weight: “not toxic” (nude mouse, medulloblastoma allograft; oral, 75 mg/kg twice daily, alone or with arsenic trioxide).
CC(=O)[O][Pt]([NH2])([Cl])([Cl])([NH]C1CCCCC1)[O]C(C)=O gave an AUC(0-24h) of 29.3 µM·h (measured: platinum; rhesus monkey, plasma ultrafiltrate; intravenous infusion, 6 mg/kg over 1 h).
For CC[C@H](C)[C@H](NC(=O)[C@H](CO)NC(=O)[C@H](C)NC(=O)[C@@H](NC(=O)CNC(=O)[C@H](CO)NC(=O)[C@@H](NC(=O)[C@@H](NC(=O)[C@H](Cc1c[nH]cn1)NC(=O)[C@@H]1CCCN1C(=O)[C@@H](NC(=O)[C@H](CC(C)C)NC(=O)[C@H](CO)NC(=O)[C@H](CC(C)C)NC(=O)[C@@H](N)Cc1ccccc1)[C@@H](C)CC)[C@@H](C)CC)C(C)C)C(C)C)C(=O)N[C@@H](C)C(=O)N[C@@H](CCCCN)C(=O)N[C@@H](Cc1c[nH]cn1)C(=O)N[C@@H](Cc1ccccc1)C(N)=O, the concentration found was 1520 ng/mL (UPLC-MS/MS; rat plasma; 1.6 µg/mL, 4 h, room temperature, short-term stability).
For Cc1c(P(=S)(c2ccccc2)c2ccccc2)n2ccccc2[n+]1C/C=C/c1ccccc1, the concentration was 24 ng/g (mouse, brain; intraperitoneal, 10 mg/kg, 15 min).
CN[C@H](CC(C)C)C(=O)N[C@H]1C(=O)N[C@@H](CC(N)=O)C(=O)N[C@H]2C(=O)N[C@H]3C(=O)N[C@H](C(=O)N[C@H](C(=O)O)c4cc(O)cc(O)c4-c4cc3ccc4O)[C@H](O)c3ccc(c(Cl)c3)Oc3cc2cc(c3O[C@@H]2O[C@H](CO)[C@@H](O)[C@H](O)[C@H]2O[C@H]2C[C@](C)(N)[C@H](O)[C@H](C)O2)Oc2ccc(cc2Cl)[C@H]1O — result for “urinary clusterin difference”: -3100 ng/24 h (Sprague-Dawley rat, male, urine; concentration not given, day 2, bolus dosing; baseline: humanized infusion group).
CC[C@@]1(O)C(=O)OCc2c1cc1n(c2=O)Cc2cc3c(CN(C)C)c(O)ccc3nc2-1 has a Tmax of 1.78 h (human patients; oral, 8 mg weekly, day 1, median, alone).
COc1ccc(C[C@@H]2NC(=O)[C@H]([C@@H](C)O)NC(=O)[C@@H]3[C@@H]4CCN3C(=O)[C@@H]3Cc5cn(c6ccc(F)cc56)CCCCCCN(Cc5ccc(cc5)CCNC(=O)[C@]5(C)CCCN5C2=O)C(=O)CCC(=O)N[C@@H](C)C(=O)N[C@H](CNC(=O)CCCCC[N+](C)(C)C)C(=O)N[C@@H](Cc2cccc(c2)CNC(=O)CO4)C(=O)N3)cc1 gave a CL/F of 1720 mL/min (fasted healthy humans, plasma; oral, 200 mg single dose, with 1800 mg Labrasol, geometric mean).
CC[C@H](C)[C@H](NC(=O)[C@H](CC(C)C)NC(=O)[C@H](Cc1c[nH]c2ccccc12)NC(=O)[C@H](CCC(N)=O)NC(=O)[C@@H](NC(=O)[C@H](Cc1ccccc1)NC(=O)[C@H](C)NC(=O)[C@H](CCCCNC(=O)COCCOCCNC(=O)COCCOCCNC(=O)CC[C@H](NC(=O)CCCCCCCCCCCCCCCCCCC(=O)O)C(=O)O)NC(=O)[C@H](CCC(N)=O)NC(=O)[C@H](C)NC(=O)[C@@H](NC(=O)[C@H](CCCCN)NC(=O)[C@H](CC(=O)O)NC(=O)[C@H](CC(C)C)NC(=O)C(C)(C)NC(=O)[C@@H](NC(=O)[C@H](CO)NC(=O)[C@H](Cc1ccc(O)cc1)NC(=O)[C@H](CC(=O)O)NC(=O)[C@H](CO)NC(=O)[C@@H](NC(=O)[C@H](Cc1ccccc1)NC(=O)[C@@H](NC(=O)CNC(=O)[C@H](CCC(=O)O)NC(=O)C(C)(C)NC(=O)[C@@H](N)Cc1ccc(O)cc1)[C@@H](C)O)[C@@H](C)O)[C@@H](C)CC)[C@@H](C)CC)C(C)C)C(=O)N[C@@H](C)C(=O)NCC(=O)NCC(=O)N1CCC[C@H]1C(=O)N[C@@H](CO)C(=O)N[C@@H](CO)C(=O)NCC(=O)N[C@@H](C)C(=O)N1CCC[C@H]1C(=O)N1CCC[C@H]1C(=O)N1CCC[C@H]1C(=O)N[C@@H](CO)C(N)=O has a tmax difference of 0 h (human, moderate renal impairment, plasma; subcutaneous, 5 mg, median of differences; baseline: normal renal function).
C=C(C)[C@@H]1CCC(C)=C[C@H]1c1c(O)cc(CCCCC)cc1O gave an average Cmax of 132 ± 82.5 ng/mL (human, plasma; oral, 100 to 800 mg, high dose).
CC[C@H](C)[C@H](NC(=O)[C@@H](N)CCCNC(=N)N)C(=O)N[C@H](C(=O)N1CCC[C@H]1C(=O)N[C@@H](C)C(N)=O)C(C)C gave an AUC(0-t) of 1150 ng·h/mL (human, plasma; intravenous, 5 mg/kg, single dose, healthy volunteers).
With `H-EALRHNASRTPSATELAHANN-OH` the helical content was 0% (far-UV circular dichroism; peptide, sodium phosphate buffer 50 mM).
For N=C(N)NCCC[C@H](NC(=O)[C@H](CCCNC(=N)N)NC(=O)[C@H](CCCNC(=N)N)NC(=O)[C@H](CCCNC(=N)N)NC(=O)[C@H](CCCNC(=N)N)NC(=O)[C@H](CCCNC(=N)N)NC(=O)[C@H](CCCNC(=N)N)NC(=O)[C@H](CCCNC(=N)N)NC(=O)c1ccc2c(c1)C(=O)OC21c2ccc(O)cc2Oc2cc(O)ccc21)C(=O)O, “apparent skin permeability” read “no effect” (no effect; Sprague-Dawley rat, excised skin; 50 µmol/L, 37 °C, FAM-labelled CPP conjugate; baseline: free FAM).
O[C@H]1CCCN[C@@H]1CCCn1cnc2c(Cl)c(Cl)ccc21 gave a half-life of 7.8 h (human, plasma; oral, 500 mg, single dose, healthy volunteers).
CC(C)C(=O)OC[C@H]1O[C@@H](n2ccc(NO)nc2=O)[C@H](O)[C@@H]1O has a remaining compound of 106 ± 1.73% (rat blood dialysate; 5 ng/mL, 6 h, room temperature, bench-top stability, added: NHC 25 ng/mL).
[123I]c1cncc(OC[C@@H]2CCN2)c1 has a tissue/plasma ratio of 53.8 (SPECT; human, thalamus; intravenous bolus plus infusion, 7.6 mCi; baseline: plasma).
CNC(=O)c1ccc(-c2cnn3ccc(C(=O)N(C)c4ccc(Cl)c(C(=O)OC)c4)cc23)cc1 gave an AUC(0-8 h) of 63.4 ng·h/mL (beagle dogs, both sexes, plasma; oral, 15 mg/kg/day, day 1, 2-week toxicology study).
For CCCCCCCC[N+](C)(C)C, “unbound fraction in blood” read 0.284 (ultrafiltration; human serum).
